Experimental data pooled from the literature.
Each line is one published result; not all experiments were run side by side. Values joined by “and” are separate records of one study, mostly repeats; a detail may differ. ≈ marks a conversion by molar mass, not a printed value.

Compound | tested on | test | test system | setting | how to read | measurement | result
C=C1C(=O)OC2C1CCC(C)(O)C13C=CC(C)(C21)C1(C3)C(=O)OC2C3C(C)C(=O)CC3C(=C)CC(OC(C)=O)C21 (centres unmarked) | Danio rerio | DCFH-DA | – | concentration not given, HFD-fed larvae NAFLD model | – | ROS content | decreased
c1ccc(CN2CCOCCOCCN(CCCCCCCCN3CCOCCOCCN(CCCCCCCCN4CCOCCOCCN(Cc5ccccc5)CCOCCOCC4)CCOCCOCC3)CCOCCOCC2)cc1 | Klebsiella pneumoniae | – | ATCC BAA-2146 | 2.5 µM, added: tetracycline | – | FIC index | 1
Cc1cc(Cl)cc(S(C)=NC#N)c1NC(=O)c1cc(Br)nn1-c1ncccc1Cl (centres unmarked) | Spodoptera litura | – | Brassica oleracea field | 50 ppm, 168 h, 10% wettable powder | – | larval survival | 17.1%
COc1cc(Nc2n[nH]c3nc(-c4ccccc4)nc(N)c23)cc(OC)c1OC | rhinovirus B48 | viral cytopathic effect | HeLa | – | – | IC50 | 1110 nM
Cc1cccc2c1N(C(=O)n1ccnn1)CC2 | Arabidopsis thaliana | – | wild type, seeds | 10 µM, high ambient temperature | – | germination rate | 0% and 8% and 76.5% and 14% and 18.2% and 10%
F[C@@H]1[C@H](c2ccc(-c3ccc(N4CCCC4)nc3)cc2)[C@H](F)[C@H](F)C[C@@H]1F | – | liver microsome stability | mouse liver microsomes | 1 µM | – | hepatic clearance | 58 mL/min/kg
CC[C@H](C)[C@H](NC(=O)[C@@H]1CCCN1C(=O)[C@H](CCSC)NC(=O)[C@H](CC(C)C)NC(=O)[C@H](Cc1ccccc1)NC(=O)[C@H](Cc1ccc(O)cc1)NC(=O)[C@@H]1CCC(=O)NCC(=O)NCC(=O)NCC(=O)NCC(=O)N2CCC[C@H]2C(=O)N[C@@H]([C@@H](C)O)C(=O)N2CCC[C@H]2C(=O)N1)C(=O)N[C@@H](CC(=O)O)C(=O)N1CCC[C@H]1C(=O)N[C@@H](C)C(=O)N[C@@H](Cc1c[nH]c2ccccc12)C(=O)N[C@@H](CC(C)C)C(=O)N[C@@H](CCC(N)=O)C(=O)N[C@@H](C)C(=O)N[C@@H](CC(N)=O)C(=O)N[C@@H](CC(C)C)C(=O)N1CCC[C@H]1C(=O)N[C@@H](CC(N)=O)C(=O)N[C@H](C(=O)NCC(=O)N[C@@H](CCCCN)C(=O)N[C@@H](Cc1ccc(O)cc1)C(=O)N[C@@H](CC(N)=O)C(=O)O)[C@@H](C)O | Burkholderia cepacia | spot-on-lawn | ATCC 25416 | concentration not given, 32 °C | – | antimicrobial activity | inactive
FC(F)(F)c1cccc(CNc2nc(NC3CCN(Cc4ccccc4)CC3)c3nc[nH]c3n2)c1 | Cryptococcus neoformans | RNA-seq, measured: PLC1 (CNAG_02867) mRNA | – | 48 µg/mL, 3 h | reference: untreated wild type | log2 fold change | 0.574
Nc1nc(-c2ccccc2)nc2[nH]nc(Nc3cccc(F)c3)c12 | rhinovirus B48 | viral cytopathic effect | HeLa | – | – | IC50 | 380 nM
COC1C=COC2(C)Oc3c(C)c(O)c4c(c3C2=O)C2=NC3(CCN(CC(C)C)CC3)NC2=C(NC(=O)C(C)=CC=CC(C)C(O)C(C)C(O)C(C)C(OC(=O)Nc2cccnn2)C1C)C4=O (centres unmarked) | Mycobacteroides abscessus | intracellular growth, Hill fit | THP-1 derived macrophages, ATCC 19977 | – | – | IC90 | 370 nM
CC1(C)[C@H](NC(=O)/C(=N\OCCN)c2csc(N)n2)C(=O)N1OS(=O)(=O)O | Enterobacter aerogenes | agar dilution | ATCC 13048, susceptible | – | – | MIC | 2 µg/mL (≈ 4.73 µM)
C=C(NC(=O)c1csc(-c2nc3c(cc2O)-c2nc(cs2)C(=O)NC(C(C)O)C(=O)NC(=C(C)OC)c2nc(cs2)C(=O)NC2c4nc(cs4)C(=O)NC(COC(=O)c4c5c6c(cccc6n4O)COC(=O)C(OC4CC(C)(O)C(N(C)C)C(C)O4)C2OC5)c2nc-3cs2)n1)C(N)=O (centres unmarked) | Streptococcus pneumoniae | – | – | – | – | MIC50 | 0.0078 µg/mL (≈ 0.00543 µM)
C[N+](C)(C)CCO.O=C([O-])C(Cl)Cl | Solanum nigrum | herbicidal activity | – | 15 mg/mL, 21 days, pre-emergence greenhouse | – | inhibition | 0%
CS(=O)(=O)c1ccc(-c2ccc(C3CCCCC3)cc2)cn1 | – | liver microsome stability | dog liver microsomes | 1 µM | – | hepatic clearance | 28 mL/min/kg
Nc1nc(-c2ccc(C(F)(F)F)cc2)nc2[nH]nc(Nc3ccc(F)cc3)c12 | rhinovirus B48 | viral cytopathic effect | HeLa | – | – | IC50 | 3250 nM
c1ccc(CN2CCOCCOCCN(CCCCCCCCCCN3CCOCCOCCN(CCCCCCCCCCN4CCOCCOCCN(Cc5ccccc5)CCOCCOCC4)CCOCCOCC3)CCOCCOCC2)cc1 | Klebsiella pneumoniae | – | ATCC BAA-2146 | 2.5 µM, added: tetracycline | – | FIC index | 1
CC[C@H](C)CCCCC(=O)N[C@@H](CCN)C(=O)N[C@H](C(=O)N[C@@H](CCN)C(=O)N[C@H]1CCNC(=O)[C@H]([C@@H](C)O)NC(=O)[C@H](CCN)NC(=O)[C@H](CCN)NC(=O)[C@H](CC(C)C)NC(=O)[C@@H](CC(C)C)NC(=O)[C@H](CCN)NC1=O)[C@@H](C)O | Pseudomonas aeruginosa | – | BAA-2797, BALB/c mouse peritonitis, spleen | dose not given | – | bacterial load | 2.2 log CFU and 2.3 log CFU and 1.9 log CFU
CC(C)(C)NCC(SS(=O)(=O)O)c1ccccc1 (centres unmarked) | Schistosoma mansoni | – | mice | 600 mg/kg single dose, dosed day 15, perfused 44 | – | female worms recovered | 3 worms per mouse and 1 worms per mouse and 0 worms per mouse and 2 worms per mouse
N#Cc1ccc(Nc2n[nH]c3nc(-c4ccccc4)nc(N)c23)cc1 | rhinovirus B48 | viral cytopathic effect | HeLa | – | – | IC50 | 18800 nM
O=c1c(-c2nc3ccccc3s2)cc2c(n1NS(=O)(=O)c1ccc(Cl)cc1)CCCCCC2 | herpes simplex virus 1 | viral replication, plaque | Vero | non-toxic dose, mean of three titres | – | plaque reduction | 70%
CCc1ccc(-c2nc(N)c3c(Nc4ccc(F)cc4)n[nH]c3n2)cc1 | rhinovirus B48 | viral cytopathic effect | HeLa | – | – | IC50 | 2080 nM
CC(=O)OC[C@H]1O[C@@H](Sc2sc(C(=O)c3ccc(Cl)cc3)c(N)c2-c2nc3ccccc3s2)[C@H](OC(C)=O)[C@@H](OC(C)=O)[C@H]1OC(C)=O | herpes simplex virus 1 | plaque reduction | – | non-toxic dose NG, mean over three titres | – | viral reduction | 10%
CC1(C)[C@H](NC(=O)/C(=N\OC2(C(=O)O)CCCC2)c2csc(N)n2)C(=O)N1OS(=O)(=O)O | Enterobacter aerogenes | agar dilution | ATCC 13048, susceptible | – | – | MIC | 0.5 µg/mL (≈ 1.02 µM)
Nc1c(C(=O)c2ccc(Br)cc2)sc(S)c1-c1nc2ccccc2s1 | herpes simplex virus 1 | plaque reduction | – | non-toxic dose NG, mean over three titres | – | viral reduction | 26.7%
Cc1cccc(Nc2n[nH]c3nc(-c4ccccc4)nc(N)c23)c1 | rhinovirus B48 | viral cytopathic effect | HeLa | – | – | IC50 | 1150 nM
Cc1cc(C(=O)Nc2nc3cccc(C)c3n2[C@H]2CCCCN(C(=O)/C=C/CN(C)C)C2)ccn1 | Trypanosoma brucei brucei | – | Lister 427 | 0.069 µM, 0 h, kill kinetics | – | proliferation | 100%
C=C[C@]1(C)C[C@@H](OC(=O)CSc2ccc(NC(=O)c3ccco3)cc2)[C@]2(C)[C@H](C)CC[C@]3(CCC(=O)[C@H]32)[C@@H](C)[C@@H]1O | Mycoplasma gallisepticum | – | infected chickens, lung | intramuscular, 5 mg/kg daily x3, 72 h | – | lung mycoplasma count | 5.22 log10 CFU/mL and 4.84 log10 CFU/mL and 5.56 log10 CFU/mL and 5.08 log10 CFU/mL and 5.2 log10 CFU/mL and 4.41 log10 CFU/mL and 4.67 log10 CFU/mL
Cc1ccc(-c2nc(N)c3c(Nc4ccc(Cl)cc4)n[nH]c3n2)cc1 | rhinovirus B48 | viral cytopathic effect | HeLa | – | – | IC50 | 990 nM
C[C@@H]1C(=O)O[C@@H](C)/C=C/C=C\[C@@H](C)[C@@H]2C=C[C@@H]3C[C@@]4(C)O[C@H]4[C@@H](C)[C@H]3[C@@H]2C(=O)C(Cl)(Cl)C1=O | Staphylococcus aureus | – | MRSA clinical isolate | Resistant, OXA, GEN, ERY, CLI, SXT | – | MIC | 0.05 µg/mL (≈ 0.101 µM)

For quick reference, copied from above:
Compound | tested on | test | test system | setting | how to read | measurement | result
N#Cc1ccc(Nc2n[nH]c3nc(-c4ccccc4)nc(N)c23)cc1 | rhinovirus B48 | viral cytopathic effect | HeLa | – | – | IC50 | 18800 nM
Nc1c(C(=O)c2ccc(Br)cc2)sc(S)c1-c1nc2ccccc2s1 | herpes simplex virus 1 | plaque reduction | – | non-toxic dose NG, mean over three titres | – | viral reduction | 26.7%
C=C(NC(=O)c1csc(-c2nc3c(cc2O)-c2nc(cs2)C(=O)NC(C(C)O)C(=O)NC(=C(C)OC)c2nc(cs2)C(=O)NC2c4nc(cs4)C(=O)NC(COC(=O)c4c5c6c(cccc6n4O)COC(=O)C(OC4CC(C)(O)C(N(C)C)C(C)O4)C2OC5)c2nc-3cs2)n1)C(N)=O (centres unmarked) | Streptococcus pneumoniae | – | – | – | – | MIC50 | 0.0078 µg/mL (≈ 0.00543 µM)
O=c1c(-c2nc3ccccc3s2)cc2c(n1NS(=O)(=O)c1ccc(Cl)cc1)CCCCCC2 | herpes simplex virus 1 | viral replication, plaque | Vero | non-toxic dose, mean of three titres | – | plaque reduction | 70%
